Experimental data from different studies.
Parts stem from different laboratories: compare values within a part only.

Block 1 — technique: protein-binding microarray; molecule type: double-stranded DNA, one strand shown; medium: in vitro; tested at: 2200 nM top; notes: 60-bp whole probe; with: salmon DNA 0.4 mg/ml; baseline: random background probes; direction: higher = stronger binding; all sequences stand within: GCCTAGCAC … GTCTTGATTCGCTTGACGCTGCTG
Target: Interferon regulatory factor 7, full length, phosphomimetic (IRF7, Homo sapiens, UniProt Q92985, residues 1-503, S471D/S472D/S475D/S476D/S477D/S483D/S484D/S487D)
Construct (chain): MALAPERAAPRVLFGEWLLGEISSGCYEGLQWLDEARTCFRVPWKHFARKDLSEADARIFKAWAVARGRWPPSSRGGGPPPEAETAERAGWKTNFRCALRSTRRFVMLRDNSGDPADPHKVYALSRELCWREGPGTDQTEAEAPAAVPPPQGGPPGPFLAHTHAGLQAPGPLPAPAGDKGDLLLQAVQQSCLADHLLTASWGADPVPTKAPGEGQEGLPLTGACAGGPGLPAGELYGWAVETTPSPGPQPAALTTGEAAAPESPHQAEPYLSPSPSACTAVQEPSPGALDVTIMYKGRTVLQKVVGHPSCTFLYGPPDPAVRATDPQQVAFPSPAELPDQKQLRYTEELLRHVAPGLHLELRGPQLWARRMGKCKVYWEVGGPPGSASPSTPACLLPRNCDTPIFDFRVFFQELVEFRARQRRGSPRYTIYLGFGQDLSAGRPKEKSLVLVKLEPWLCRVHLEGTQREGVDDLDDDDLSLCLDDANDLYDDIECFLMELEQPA
| Oligonucleotide | fitted relative affinity |
| --- | --- |
| AACGGTTTCGGACTGGGGACGTGCTAG | 4.05 z-score |
| GACGATATCGGGTATCGAGAGGTGCTA | -0.149 z-score |
| TCACTTCTCTTTTTGCTACTGTGCTAG | 3.24 z-score |
| TTAGATATCAGTATGGATTAGTGCTAG | -0.199 z-score |
| TTTGGTCTCCTTCTCCTTTAGTGCTAG | 1.99 z-score |
| TTAGATATCAGTTTCGAATAGTGCTAG | 2.13 z-score |
| TCAGCTTTGTGCCTAGCACTGTGCTAG | 0.18 z-score |
| GACGGTTTTGGTCTCGGGACGTGCTAG | 1.15 z-score |
| TATTATATATTTATGTATACGTGCTAG | 0.88 z-score |
| TTTTTTTTACTTCGGGTGACGTGCTAG | 1.37 z-score |
| TCAGGTTTCGGTCTCGGTTAGTGCTAG | 6.93 z-score |
| GACGAGCTCAGTATCGAGACGTGCTAG | -0.299 z-score |
| TTAGGACTGGGGTATCTGTTAGTGCTA | -0.447 z-score |
| TGAGTCTTCCCTTTTAAGTTGTGCTAG | 1.43 z-score |
| GATGGACTGGGTCTCGGGACGTGCTAG | -0.851 z-score |
| TTAGGACTGGAACTGGGTTAGTGCTAG | -0.41 z-score |
| GTAGAACTGAGTATCGATTAGTGCTAG | -0.108 z-score |
| TTAGGTTTCGCGTTTCGGTTAGTGCTA | 6.41 z-score |
| TCAGACATCTTCATCAAACTGTGCTAG | 0.407 z-score |

Block 2 — technique: aptamer microarray, sandwich; molecule type: DNA with 2'F-ANA; medium: in vitro; tested at: 200 nM; with: Cy3 exosite-II aptamer, 400 nM; direction: higher = stronger binding; oligonucleotide: GGTTGGTGTGGTTGG
Target: Prothrombin, mature alpha-thrombin (F2, Homo sapiens, UniProt P00734)
Notes: whole 15-mer aptamer, many near background
| Modification | mean fluorescence intensity |
| --- | --- |
| 2'F-ANA at 2 3 5 7 8 9 10 13 14 15 | 50.9 a.u. |
| 2'F-ANA at 1 2 3 4 5 6 7 8 10 11 12 13 14 15 | 68.9 a.u. |
| 2'F-ANA at 1 2 3 5 6 7 8 9 10 11 13 | 50.1 a.u. |
| 2'F-ANA at 3 13 14 15 | 642 a.u. |
| 2'F-ANA at 1 2 3 5 6 7 10 12 13 14 15 | 50.2 a.u. |
| 2'F-ANA at 2 4 5 6 7 8 11 14 | 52.9 a.u. |
| 2'F-ANA at 2 3 7 8 11 | 1130 a.u. |
| 2'F-ANA at 1 2 3 4 7 10 13 14 15 | 52.7 a.u. |
| 2'F-ANA at 1 2 4 5 6 7 8 12 14 | 52.6 a.u. |
| 2'F-ANA at 1 3 4 5 13 | 47 a.u. |
| 2'F-ANA at 1 4 6 7 9 10 13 14 | 52.7 a.u. |
| 2'F-ANA at 1 2 3 5 6 7 8 10 11 12 14 15 | 50.7 a.u. |
| 2'F-ANA at 7 8 12 13 14 | 308 a.u. |
| 2'F-ANA at 1 2 4 6 7 8 9 10 12 15 | 60.2 a.u. |
| 2'F-ANA at 1 2 5 7 10 11 12 13 | 47.7 a.u. |
| 2'F-ANA at 1 2 4 5 6 7 11 13 15 | 50.8 a.u. |
| 2'F-ANA at 3 4 5 8 9 10 11 12 15 | 58.2 a.u. |
| 2'F-ANA at 7 9 11 13 | 486 a.u. |
| 2'F-ANA at 5 7 8 10 11 14 | 44.2 a.u. |
| 2'F-ANA at 3 6 7 9 10 13 14 | 375 a.u. |
| 2'F-ANA at 1 2 3 4 8 12 13 14 15 | 81.1 a.u. |
| 2'F-ANA at 3 4 5 6 8 13 14 | 49.7 a.u. |
| 2'F-ANA at 3 5 9 10 | 56.9 a.u. |
| 2'F-ANA at 1 7 9 11 14 | 56.2 a.u. |
| 2'F-ANA at 7 8 9 10 12 14 15 | 121 a.u. |

Block 3 — organism: Saccharomyces cerevisiae; read-out: growth after mating arrest; technique: competitive growth deep sequencing; molecule type: peptide; notes: strain without Cln2 fusion; direction: direction not given
| Molecule | enrichment score |
| --- | --- |
| SSEVARHLLFQSHM | -0.0955 |
| PKRAKRKLYTSEISSP | -0.156 |
| PKNAKRNLSSEFAN | -0.423 |
| SMTDFYHSKRRLIFSK | 0.0606 |

Block 4 — technique: RNA Bind-n-Seq; molecule type: RNA; medium: in vitro; tested at: 365 nM; baseline: no-protein control; direction: higher = stronger binding
Target: RNA binding protein fox-1 homolog 2, RRM domain, GST-SBP tag (RBFOX2, Homo sapiens, UniProt O43251-10, residues 100-194)
Notes: natural RNA segment, single round, ends assumed
Target sequence (chain): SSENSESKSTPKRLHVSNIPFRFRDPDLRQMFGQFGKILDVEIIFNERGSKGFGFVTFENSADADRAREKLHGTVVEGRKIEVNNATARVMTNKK
| Oligonucleotide | RBNS enrichment (R) |
| --- | --- |
| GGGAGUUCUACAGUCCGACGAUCGGAGACAGCUGGCCAGAAUCGUAUAUGCUGGUUUUAUAACUGUUUUAUUAUUAAAGAGAAGAAAACCAACAAAAACUUGUUUGCUUCUGAUUUUUCUUAAAUUGACAUAUUGGAAUUCUCGGGUGCCAA | 0.515 |
| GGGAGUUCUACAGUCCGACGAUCCUCCCCAAUCACUUAGUCUUCACCUACCCCAUUCCAAUAAGCCUCAUUUCUUCUCAUCCCCUGCUUGGCUUCUCUGCAUGUGGUCAUCUGCUAUGGCCUGGUGUGUAAUGUGGAAUUCUCGGGUGCCAA | 12.7 |
| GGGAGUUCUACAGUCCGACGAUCUGAUGGCUGGGGUCCCCCAUCUGCUAUGCGUACUUCACUGACCUAUAAACACUAAGAUGGGGUGCAAGGGCCCAGCCCCAGCUCCACAGCCCCCAUAUGCACCCACCCUGUGGAAUUCUCGGGUGCCAA | 0.916 |
| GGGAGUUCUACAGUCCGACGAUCGUGGUCCCAGCUACUUGGGAGGCUGAGGCAUGAGAAUUGCUUGAACCCGGGAAGUGAAGGUUGCCGUGAGCUGAGAUCACACCACUGCCAUAAACAUGACAGGCUUUUGGUGGAAUUCUCGGGUGCCAA | 0.987 |
| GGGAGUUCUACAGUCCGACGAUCGCGCGGACUCUAGCCAGGCAGGGACACGUCUGGUGCCAGAACACGCAGCUGCCCACACGCAAGGUCAUGGCCCCAGCGGCCCCGGCACAUGGAGUGGUUCAGCGCGGCCUUGGAAUUCUCGGGUGCCAA | 0.261 |
| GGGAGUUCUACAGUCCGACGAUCUAUCCUCUCAUGGGUGAUUAUCUCAGUGGUGUCACCAGGGGCUUCCUCCCAGAAGUCAGUCAUCCCCAGGCCGUGCACCCUUUUCAGCUGGAUGAGAGCCAGGGAUGCAUUGGAAUUCUCGGGUGCCAA | 0.48 |
| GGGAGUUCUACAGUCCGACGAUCGAGCUCUAGGUGUUUAGGCAGCGUGUGGUGUCUGAGAGGCCAUAGCGCCAUCAUGGGCUGAUUUUUAUUACCAGGUCCCCCAGAAGCAGGUGGGAGGCUCUGCUUCCUGCUGGAAUUCUCGGGUGCCAA | 0.172 |
| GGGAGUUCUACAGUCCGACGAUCACAAAUAGUCUAUCAACCCCAGACACUGGUUUGAAGAAUGUUAAGACUUGACAGUGGAACUACAUUAGUACACAGCACCAGAAUGUAUAUUAAGGUGUGGCUUUAGGAGCUGGAAUUCUCGGGUGCCAA | 1.52 |

Block 5 — technique: protein binding microarray; molecule type: double-stranded DNA, one strand shown; medium: in vitro; tested at: not given; baseline: not given; direction: higher = stronger binding
Target: Histone acetyltransferase KAT6A, winged helix 1, GST fusion (KAT6A, Homo sapiens, UniProt Q92794, residues 1-85)
Notes: 8-mer, flanks averaged, mean of 2 arrays, mostly near background
Residues (chain): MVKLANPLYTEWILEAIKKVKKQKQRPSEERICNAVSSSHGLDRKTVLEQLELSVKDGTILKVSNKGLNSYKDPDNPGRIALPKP
| Oligonucleotide | E-score |
| --- | --- |
| GTCACGTA | -0.0632 |
| CAGTGGAG | -0.153 |
| AGACAGAG | -0.185 |
| GACTCTGC | -0.156 |
| GGATATCC | -0.156 |
| ACGACGCT | 0.111 |
| ATTTGCGC | 0.218 |
| ACGGAACC | 0.282 |
| AGAGATGC | -0.0589 |
| ATTCTCCA | -0.117 |
| GCGACCTA | 0.106 |
| CCCCATTA | -0.172 |
| CTTAGGTA | -0.244 |
| CCCCACAG | -0.166 |
| AGCGGGGC | 0.359 |
| ATGCTTGC | 0.0399 |
